Published values from different studies.
Compare with care: the assays were run in different laboratories. ± marks the error that the study gave.

SMILES	test	test system	conditions	quantity	value
O=C1COCCN1c1ccc(CO[C@@H]2COc3nc([N+](=O)[O-])cn3C2)cn1		human		unbound fraction	> 0.7
CNC(=O)c1ccc(-c2cnc3ncc(Cc4ccc5ncccc5c4)n3n2)cc1F		human mild hepatic impairment	oral, 200 mg single dose, adjusted geometric mean	unbound AUC(0-t)	146 ng·h/mL
C#C[C@]1(O)CC[C@H]2[C@@H]3CCC4=CC(=NO)CC[C@@H]4[C@H]3CC[C@@]21CC (mixture of isomers)		human, plasma		unbound fraction	0.0104
CCn1c(=O)c(-c2cc(NC(=O)Nc3ccccc3)c(F)cc2Br)cc2cnc(N)cc21	ultracentrifugation	human, hepatic impairment severe or matched healthy, plasma	oral, 50 mg single dose	unbound fraction at Cmax	0.167%
CC#CC(=O)N1CCC[C@H]1c1nc(-c2ccc(C(=O)Nc3ccccn3)cc2)c2c(N)nccn12	noncompartmental analysis	human, control subjects, plasma	oral, 50 mg, geometric mean	unbound Cmax	1.2 ng/mL
CCO[C@H]1CCN(Cc2c(OC)cc(C)c3[nH]ccc23)[C@H](c2ccc(C(=O)O)cc2)C1		human mild hepatic impairment, plasma	oral, 200 mg single dose, median	unbound Tmax	1.88 h
N#Cc1ccc(C(c2ccc(C#N)cc2)n2cncn2)cc1		human patients, plasma	oral, 10 mg daily	unbound Cmax at steady state	740 ± 230 nM
CO[C@H]1C[C@@H]2CC[C@@H](C)[C@@](O)(O2)C(=O)C(=O)N2CCCC[C@H]2C(=O)O[C@H]([C@H](C)C[C@@H]2CC[C@@H](OC(=O)NCCOCCOCCOCCOCCOCCOCCOCCOCCC(=O)N3CCc4cc(Cn5nc(-c6ccc7oc(N)nc7c6)c6c(N)ncnc65)ccc4C3)[C@H](OC)C2)C[C@@H](O)[C@H](C)/C=C(\C)[C@@H](O)[C@@H](OC)C(=O)[C@H](C)C[C@H](C)/C=C/C=C/C=C/1C		human, plasma	intravenous, 10 mg, Cycle 1 Day 15, 1 h infusion	unbound Cmax	16.2 nM
C[C@H]1CNC(=O)c2cnn3ccc(nc23)N[C@H](C)c2cc(F)ccc2O1		human, plasma	concentration not given, steady state recommended dose	unbound average concentration	39 nM
Nc1nc(-n2cc(C(=O)O)c(=O)c3cc(F)c(N4CC(O)C4)c(Cl)c32)c(F)cc1F		human, plasma	450 mg	unbound Cmax	2700 nM
NC[C@@]1(CC(=O)O)[C@@H]2CC[C@H]3C[C@@H]2[C@@H]1C3		human, severe renal impairment, plasma	dose not given, geometric mean	unbound apparent volume of distribution	54.3 L
C[C@H]1CN(C(=O)CC#N)[C@]12CCN(c1ncnc3[nH]ccc13)C2		human		unbound fraction	~0.75
CCS(=O)(=O)N1CC(CC#N)(n2cc(-c3ncnc4[nH]ccc34)cn2)C1		human, plasma	oral, dose not given	unbound Cmax	72 nM
Cn1c(Cn2ccc(C(F)(F)F)c(Oc3cc(Cl)cc(C#N)c3)c2=O)n[nH]c1=O		human, plasma	120 mg	unbound Cmax	651 nM
CCn1c(=O)c(-c2cc(NC(=O)Nc3ccccc3)c(F)cc2Br)cc2cnc(NC)cc21	ultracentrifugation	healthy human, matched to severe impairment, plasma	oral, 50 mg single dose	unbound fraction at Cmax	0.354%
CC(C)OC(=O)[C@H](C)N[P@](=O)(OC[C@H]1O[C@@H](n2ccc(=O)[nH]c2=O)[C@](C)(F)[C@@H]1O)Oc1ccccc1		human, plasma	400 mg	unbound Cmax	445 nM
O=[N+]([O-])c1cn2c(n1)OC[C@@H](OCc1ccc(N3CCOCC3)c(F)c1)C2		human		unbound fraction	0.49

Repeated from above:
SMILES	test	test system	conditions	quantity	value
CCO[C@H]1CCN(Cc2c(OC)cc(C)c3[nH]ccc23)[C@H](c2ccc(C(=O)O)cc2)C1		human mild hepatic impairment, plasma	oral, 200 mg single dose, median	unbound Tmax	1.88 h
